Published values pooled from the literature.
Numbered parts are unrelated; each lists some results of a single study.

Set 1 — method: RNA Bind-n-Seq; molecule type: RNA; medium: in vitro; tested at: not given; reference: input RNA pool; reading: higher = stronger binding; endpoint: bound/input enrichment
Target: RING finger protein unkempt homolog, zinc fingers 1-6, GST-SBP tag (UNK, Homo sapiens, UniProt Q9C0B0, residues 30-357)
UniProt Q9C0B0, sequence (30-357, looked up): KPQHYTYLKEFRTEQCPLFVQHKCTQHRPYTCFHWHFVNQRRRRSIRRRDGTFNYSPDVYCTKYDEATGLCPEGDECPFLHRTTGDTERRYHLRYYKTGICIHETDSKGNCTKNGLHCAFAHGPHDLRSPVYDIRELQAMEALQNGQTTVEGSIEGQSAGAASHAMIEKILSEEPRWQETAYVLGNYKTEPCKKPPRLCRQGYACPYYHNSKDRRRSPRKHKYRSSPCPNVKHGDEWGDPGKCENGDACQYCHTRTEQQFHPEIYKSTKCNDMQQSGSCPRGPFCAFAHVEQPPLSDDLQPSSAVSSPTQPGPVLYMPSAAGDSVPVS
Setting: RNA with constant flanks, human and mouse sites, ends assumed
Sequence = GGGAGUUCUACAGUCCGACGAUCAGCGACAGAAAAAGGGAAGGGUGUCUCAUCCCCCUUCCUCCUCUCCUCCCUGUCCUGAGCCUUAGCCAUGGCCGAGGCAGGGGCUGGGCUGAGCGAGACCGUCACUGAGACAACGGUUACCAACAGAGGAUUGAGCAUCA; result = 0.375 ratio
Sequence = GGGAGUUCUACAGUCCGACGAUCGCUGUCAUGUAUGUAUGCAAGGUGGCAGCUGAGUGGAGAAACACCUUCCACAAGGAUGUUGUAGUUGAUCUGGUGUGUUAUCGACGAAAUGGCCACAAUGAGAUGGACGAACCUAUGUUUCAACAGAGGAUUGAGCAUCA; result = 0.13 ratio
Sequence = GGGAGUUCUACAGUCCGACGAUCGUGAAGAGAAACAAUUUCUAGCCUUCUUGCCAAAUCCAGACCUCUGGUUGACUUUUCUUUCAUAGAAGAUGGAGUUAUCUUCCAGUUUUCCAACUUAAAUUUAUUUAGCCUUUAUAUUAUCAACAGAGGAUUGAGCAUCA; result = 293 ratio
Sequence = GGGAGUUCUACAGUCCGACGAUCACCUCCCAAGUCCUGUAUGAGUGGGAACAGGGAUUUUCUCAGUCCUUCACUCAAGAACAAGUAGCUGAUAUUGAUGGACAGUAUGCAAUGACUCGAGCUCAGAGGGUACGAGCUGCUAUGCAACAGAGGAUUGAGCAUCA; result = 0.156 ratio
Sequence = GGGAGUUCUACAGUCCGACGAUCAAUCUUAAUUUUAAAGUGAAAGAGGAGCCUAAGGAAGGGGAGUCCCUAAGCACGACUUUGCCUCGGUCCAGCUAUGUGUUCAGCCCGGAAUCUGAAGUGUCAGCCCCAGGCGUCUCUGAGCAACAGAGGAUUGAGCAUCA; result = 0.121 ratio

Set 2 — method: protein-binding microarray; molecule type: double-stranded DNA, one strand shown; medium: in vitro; tested at: 250 nM; setting: 60-bp whole probe; together with: salmon DNA 0.4 mg/ml; reference: random background probes; reading: higher = stronger binding; endpoint: log fluorescence; all sequences stand within: GCCTAGCAC … GTCTTGATTCGCTTGACGCTGCTG
Target: Interferon regulatory factor 7, full length, phosphomimetic (IRF7, Homo sapiens, UniProt Q92985, residues 1-503, S101K/S471D/S472D/S475D/S476D/S477D/S483D/S484D/S487D)
Residues (chain): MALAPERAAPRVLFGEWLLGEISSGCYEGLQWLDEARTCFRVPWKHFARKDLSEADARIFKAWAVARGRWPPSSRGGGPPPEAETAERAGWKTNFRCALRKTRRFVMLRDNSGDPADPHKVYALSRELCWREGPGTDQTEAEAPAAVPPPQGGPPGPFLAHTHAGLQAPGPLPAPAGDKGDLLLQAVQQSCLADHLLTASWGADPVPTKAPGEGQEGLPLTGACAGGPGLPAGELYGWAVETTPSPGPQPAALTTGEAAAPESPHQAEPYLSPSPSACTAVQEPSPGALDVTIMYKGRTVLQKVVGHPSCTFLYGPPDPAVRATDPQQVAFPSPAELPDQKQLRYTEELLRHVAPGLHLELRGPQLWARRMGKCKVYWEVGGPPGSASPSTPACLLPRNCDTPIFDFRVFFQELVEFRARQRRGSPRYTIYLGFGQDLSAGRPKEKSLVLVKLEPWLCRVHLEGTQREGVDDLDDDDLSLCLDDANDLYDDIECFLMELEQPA
Sequence = GACGGTTTCGGACTGGCGACGTGCTAG; result = 3.85 z-score
Sequence = TTAAATCTCAGTATCGATTAGTGCTAG; result = 0.944 z-score
Sequence = GACGATCTCAGTTTCGAGCCGTGCTAG; result = 1.63 z-score
Sequence = TCAGGTGTTCTTTTCTGACTGTGCTAG; result = -0.0698 z-score
Sequence = TCAAATCTTTTTCCCTAACTGTGCTAG; result = 1.1 z-score
Sequence = GACGGACTGGACACCGGGGACGTGCTA; result = -0.628 z-score
Sequence = ATAGGACTGCTTCTCCTTTAGTGCTAG; result = 0.663 z-score
Sequence = GACGGAGTGCTTTTCCTGACGTGCTAG; result = -0.204 z-score
Sequence = CTCTTTTTGCTTTCTTTTATGTGCTAG; result = 2.04 z-score
Sequence = GACGGTATCGGTCTCGGCACGTGCTAG; result = 0.15 z-score

Set 3 — method: RNAcompete; molecule type: RNA; medium: in vitro; tested at: 20 nM; setting: 7-mer, probes averaged, single round; reference: mean of 7-mers; reading: higher = stronger binding; endpoint: 7-mer Z-score
Target: PABPC1L2, full length, GST fusion (mouse, UniProt A0ABA7IW68)
Target sequence (chain): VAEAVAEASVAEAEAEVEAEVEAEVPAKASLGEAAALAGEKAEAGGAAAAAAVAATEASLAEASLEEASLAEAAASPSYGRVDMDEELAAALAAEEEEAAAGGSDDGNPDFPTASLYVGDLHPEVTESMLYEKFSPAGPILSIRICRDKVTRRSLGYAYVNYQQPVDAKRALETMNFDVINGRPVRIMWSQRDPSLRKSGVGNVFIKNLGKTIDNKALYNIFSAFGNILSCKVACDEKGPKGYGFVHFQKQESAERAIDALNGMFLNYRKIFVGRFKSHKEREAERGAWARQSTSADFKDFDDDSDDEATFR
Sequence = ACGUUCG; result = -0.389
Sequence = CAGCAGU; result = 0.095
Sequence = GUUGCCG; result = -0.235
Sequence = AGAUCUG; result = -0.257
Sequence = UACUCAC; result = -0.157
Sequence = GAACAAC; result = 0.254
Sequence = AAAGAAA; result = 4.15
Sequence = AGAUUAG; result = -0.0536
Sequence = CGAGCAU; result = -0.133
Sequence = UCAAAAC; result = 0.914
Sequence = GAGAAAG; result = 0.769

Set 4 — method: protein binding microarray; molecule type: double-stranded DNA, one strand shown; medium: in vitro; tested at: not given; reference: not given; reading: higher = stronger binding; endpoint: E-score
Target: Histone acetyltransferase KAT6A, winged helix 1, GST fusion (KAT6A, Homo sapiens, UniProt Q92794, residues 1-85)
Setting: 8-mer, flanks averaged, mean of 2 arrays, mostly near background
Construct (chain): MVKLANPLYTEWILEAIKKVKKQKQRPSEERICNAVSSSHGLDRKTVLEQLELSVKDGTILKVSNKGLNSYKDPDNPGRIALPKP
Sequence = TATATGAA; result = -0.0817
Sequence = AGAAAACG; result = 0.0752
Sequence = ACATTATG; result = 0.0118
Sequence = AGAGATAA; result = -0.258
Sequence = AGATTGCA; result = -0.0896
Sequence = AGGACTGG; result = -0.199
Sequence = AGCCGTAT; result = 0.322
Sequence = AGATCAAA; result = -0.0773
Sequence = AGTTGCCA; result = -0.15
Sequence = ATATGATA; result = -0.121
Sequence = AGCCTTTC; result = -0.0698
Sequence = GCGACAAA; result = 0.0294
Sequence = TGAGAGCA; result = -0.253
Sequence = ACATCGCA; result = 0.0673
Sequence = CAGAGACA; result = -0.216

Set 5 — method: RNA Bind-n-Seq; molecule type: RNA; medium: in vitro; tested at: 365 nM; reference: no-protein control; reading: higher = stronger binding; endpoint: RBNS enrichment (R)
Target: RNA binding protein fox-1 homolog 2, RRM domain, GST-SBP tag (RBFOX2, Homo sapiens, UniProt O43251-10, residues 100-194)
Setting: natural RNA segment, single round, ends assumed
Residues (chain): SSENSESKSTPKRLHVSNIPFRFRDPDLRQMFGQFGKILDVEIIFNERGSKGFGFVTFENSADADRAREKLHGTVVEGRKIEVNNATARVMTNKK
Sequence = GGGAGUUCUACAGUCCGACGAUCAAGUUGGGUUUGGUUCUGUUGUUAUGAUUGUUUUGUCGUGGUGCUUGUGUUCAGUUAUAUUCUCUCUCUCUCUCAUUUCAAAUACUGCUUGACAAUUCGAAAAUGAACCAUGGAAUUCUCGGGUGCCAA; result = 2.2
Sequence = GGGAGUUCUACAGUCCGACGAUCCUUAGGAGAUGAAAGAAUAUUACCACAUGAGGAGGAGGGGCAGUUGCAACAGAACACUUUGGUCUUCCUACACCAAGUCUGUGAGGGCAUCCAAGACUGAAUGAAAGCGCUGGAAUUCUCGGGUGCCAA; result = 1.88
Sequence = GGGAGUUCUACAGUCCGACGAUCAGAACAAAACAAAACAAAACACCACAAACCAAAAACAUCUGGGCUAGCCAGGCAUGAUUGCAAUGUCUACAGGCCCAGUUCAUGAGAGGCAGAGACAGGAAGACCGCCGAUGGAAUUCUCGGGUGCCAA; result = 0.565
Sequence = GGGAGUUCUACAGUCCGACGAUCUGUAUCUGGUUUCUACAUGGAAGACUAAACUCAUGCUUAUUGCUAAAUGUGGUCUUUGCCAACUAAAUUUAAGAUGCAGCAUUUUAGAAAUUUACAUAUCAAUGUUUCUAUGGAAUUCUCGGGUGCCAA; result = 0.343
Sequence = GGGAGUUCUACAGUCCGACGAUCAAAAAGCAUGUUAAGUUGGUAUAAGCAGUGAUUUUAAAUGAUUUUUAAAAAUAAGACGUCCUUCAAAAUGUCUUUUAGUAUCAAUUAAGUUUGUGCAUGAUUGUUUUUAUUGGAAUUCUCGGGUGCCAA; result = 7.03
Sequence = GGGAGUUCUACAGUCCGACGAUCUUCUACUUGGUGUUUGUUCUCUGGAGCUGAUUGCACUUGAGCUCUGUGGUGGGCAGGCGCACUUUAGCCUAAGUUGGGUGCCCCAGGGCACCCCCUCCUCUCUGCUCCUUUGGAAUUCUCGGGUGCCAA; result = 2.54

Set 6 — target: UBE2D1 UBC core domain (UniProt P51668); method: yeast two-hybrid; medium: yeast; setting: mostly zero background; reference: not given; reading: higher = stronger interaction; endpoint: lacZ reporter activity
B1: ARIH1 RING domain (UniProt Q9Y4X5); chain NTRSSAQDMPCQICYLNYPNSYFTGLECGHKFCMQCWSEYLTTKIMEEGMGQTISCPAHGCDILVDDNTVM
B2: RMND5B RING domain (UniProt Q96G75); chain MKCWYHSVFACPILRQQTSDSNPPIKLICGHVISRDALNKLINGGKLKCPYCPMEQNPADGK
B3: RNF115 RING domain (UniProt Q9Y4L5); chain TQEQVDMGLECPVCKEDYTVEEEVRQLPCNHFFHSSCIVPWLELHDTCPVCRKSLNGEDSTR
B4: RNF32 RING domain (UniProt Q9H0A6); chain VQALRRETHECSICLAPLSAAGGQRVGAGRRSREMALLSCSHVFHHACLLALEEFSVGDRPPFHACPLCRSCYQKKILEC
B5: RFPL3 RING domain (UniProt O75679); chain MAALFQEASSCPVCSDYLEKPMSLECGCTVCLKCINSLQKEPHGEDLLCCCCSMVSQRNKIRP
B6: TRIM2 RING domain (UniProt Q9C040); chain VRQIDKQFLICSICLERYKNPKVLPCLHTFCERCLQNYIPAHSLTLSCPVCRQTSILPEKGV
Construct (chain): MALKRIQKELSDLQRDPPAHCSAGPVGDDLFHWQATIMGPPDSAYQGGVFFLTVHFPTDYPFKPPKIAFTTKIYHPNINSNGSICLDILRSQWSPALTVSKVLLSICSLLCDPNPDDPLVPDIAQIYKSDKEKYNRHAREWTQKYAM
Molecule = VPADASPDSKCPICLDRFDNVSYLDRCLHKFCFRCVQEWSKNKAECPLCKQPFDSIFHSV (TOPORS RING domain (UniProt Q9NS56)); result = 17600
Molecule = B1 (ARIH1 RING domain); result = 0
Molecule = B2 (RMND5B RING domain); result = 5370
Molecule = B3 (RNF115 RING domain); result = 11100
Molecule = B4 (RNF32 RING domain); result = 0
Molecule = B5 (RFPL3 RING domain); result = 0
Molecule = B6 (TRIM2 RING domain); result = 0
